Measurements of several laboratories.
Protocols differ between the studies behind these lines. ± marks the error that the study gave. In brackets after ≈: the same amount, converted by molar mass.
Sequence of UniProt P01317 (whole entry, looked up): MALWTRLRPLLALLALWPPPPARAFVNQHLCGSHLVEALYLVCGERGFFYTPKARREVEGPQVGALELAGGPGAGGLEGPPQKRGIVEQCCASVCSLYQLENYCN

With `hdhb G39D/R40L/R41N/T17A (Clostridium sardiniense)` the kcat/Km was 266 M⁻¹ s⁻¹ (NC(=O)c1ccc[n+]([C@@H]2O[C@H](COP(=O)(O)OP(=O)(O)OC[C@H]3O[C@@H](n4cnc5c(N)ncnc54)[C@H](O)[C@@H]3O)[C@@H](O)[C@H]2O)c1; steady-state kinetics; pH 8, 25 °C, cofactor varied).
With CC[C@H](C)[C@H](NC(=O)[C@H](CCCCN)NC(=O)[C@H](CCC(N)=O)NC(=O)[C@H](Cc1ccccc1)NC(=O)[C@@H](NC(=O)[C@H](CCCCN)NC(=O)[C@H](CCCCN)NC(=O)[C@H](CC(C)C)NC(=O)[C@H](C)NC(=O)[C@H](CC(N)=O)NC(=O)[C@@H](N)CC(C)C)C(C)C)C(=O)N[C@@H](Cc1c[nH]cn1)C(=O)N[C@@H](CCC(=O)O)C(=O)N[C@@H](C)C(N)=O the MIC was 32 µM (≈ 52.4 µg/mL) (Staphylococcus aureus; USA300, resistant; 18 h, 37 °C).
`dmhA Y158F (Campylobacter jejuni)` has a kcat of 0.008 ± 0.0004 s⁻¹ (Nc1nc2c(ncn2[C@@H]2O[C@H](COP(=O)(O)OP(=O)(O)O[C@H]3O[C@H]([C@H](O)CO)[C@@H](O)[C@H](O)[C@@H]3O)[C@@H](O)[C@H]2O)c(=O)[nH]1; steady-state kinetics; pH 7.5, 30 °C).
With `insulin` the α-helix content was 21.8% (Insulin (INS, Bos taurus, UniProt P01317); circular dichroism; 300 min).
The kcat of `dmhA K162M (Campylobacter jejuni)` is reported as 0.002 ± 0.0001 s⁻¹ (Nc1nc2c(ncn2[C@@H]2O[C@H](COP(=O)(O)OP(=O)(O)O[C@H]3O[C@H]([C@H](O)CO)[C@@H](O)[C@H](O)[C@@H]3O)[C@@H](O)[C@H]2O)c(=O)[nH]1; steady-state kinetics; pH 7.5, 30 °C).
For `hdhb E18D/G39D/R40A/R41A/T17A (Clostridium sardiniense)`, the kcat was 0.32 ± 0.01 s⁻¹ (NC(=O)c1ccc[n+]([C@@H]2O[C@H](COP(=O)(O)OP(=O)(O)OC[C@H]3O[C@@H](n4cnc5c(N)ncnc54)[C@H](O)[C@@H]3O)[C@@H](O)[C@H]2O)c1; steady-state kinetics; pH 8, 25 °C, cofactor varied).

For quick reference, copied from above:
For `hdhb E18D/G39D/R40A/R41A/T17A (Clostridium sardiniense)`, the kcat was 0.32 ± 0.01 s⁻¹ (NC(=O)c1ccc[n+]([C@@H]2O[C@H](COP(=O)(O)OP(=O)(O)OC[C@H]3O[C@@H](n4cnc5c(N)ncnc54)[C@H](O)[C@@H]3O)[C@@H](O)[C@H]2O)c1; steady-state kinetics; pH 8, 25 °C, cofactor varied).
